Assay results collected from several papers.
Protocols differ between the studies behind these lines.
Cell line: ACHN

Structure (SMILES)	assay	conditions	how to read	endpoint	value
CCCCN1CCN(c2ccc3[nH]c(-c4ccc5[nH]c(-c6cc(OC)c(OC)c(OC)c6)nc5c4)nc3c2)CC1	SRB	10 µM, 48 h	–	growth percent	86.8%
C#C[C@@]1(O)[C@@H](CO)O[C@@H](n2cc(F)c3c(N)ncnc32)[C@@H]1O	SRB	NCI-60 screen	–	TGI	> 100 µM
O=C1NC(c2ccccc2)(c2ccccc2)C(=O)N1Cc1cn(-c2cc3ccccc3oc2=O)nn1	NCI60 single-dose screen	10 µM	–	growth percentage	92.7%
CCCCN1CCN(c2ccc3nc(-c4ccc5nc(-c6cc(OC)ccc6OC)[nH]c5c4)[nH]c3c2)CC1	SRB	10 µM, 48 h	–	growth percent	106%
O=C1NCCc2[nH]c(-c3ccncc3)cc21	MTS	NCI60 panel	–	IC50	> 10 µM
O=C(Nc1nnc2n3c(nc(-c4ccc(Cl)cc4)c1-2)SCC3=O)c1ccccc1	SRB	10 µM, NCI60 single-dose screen	relative to: untreated	cell growth	98.7%
COc1ccc(OC)c(-c2nc3ccc(-c4nc5ccc(N6CCN(C)CC6)cc5[nH]4)cc3[nH]2)c1	SRB	10 µM, 48 h	–	growth percent	100%
Cn1cncc1C1=CN(c2ncnc3[nH]cnc23)CCS1	–	renal cancer	–	GI50	10.7 µM
CSc1nc(-c2ccc(Cl)cc2)c2c(NC(=O)c3ccccc3)nnc-2[nH]1	SRB	10 µM, NCI60 single-dose screen	relative to: untreated	cell growth	95.2%
CCCN1CCN(c2ccc3[nH]c(-c4ccc5[nH]c(-c6ccc(OCC)c(OCC)c6)nc5c4)nc3c2)CC1	SRB	10 µM, 48 h	–	growth percent	-28.9%
Cc1cc(C)n(-c2nc(-c3ccc(Cl)cc3)c3c(NC(=O)c4ccccc4)nnc-3[nH]2)n1	SRB	10 µM, NCI60 single-dose screen	relative to: untreated	cell growth	99.4%
Cc1cc(=O)[nH]c(=O)n1Cc1cn(-c2c3ccccc3nc3ccccc23)nn1	NCI60 single-dose screen	10 µM	–	growth percentage	87.4%
C#C[C@@]1(O)[C@@H](CO)O[C@@H](n2ccc3c(N)ncnc32)[C@@H]1O	SRB	NCI-60 screen	–	TGI	4.48 µM
Cc1cc(=O)[nH]n1-c1nc(-c2ccc(Cl)cc2)c2c(NC(=O)c3ccccc3)nnc-2[nH]1	SRB	10 µM, NCI60 single-dose screen	relative to: untreated	cell growth	98.7%
CCCCN1CCN(c2ccc3[nH]c(-c4ccc5[nH]c(-c6ccc(OCC)c(OCC)c6)nc5c4)nc3c2)CC1	SRB	10 µM, 48 h	–	growth percent	12.7%
O=C(Nc1nnc2n3c(=S)[nH][nH]c3nc(-c3ccc(Cl)cc3)c1-2)c1ccccc1	SRB	10 µM, NCI60 single-dose screen	relative to: untreated	cell growth	78.8%
O=c1ccn(Cc2cn(-c3cc4ccccc4oc3=O)nn2)c(=O)[nH]1	NCI60 single-dose screen	10 µM	–	growth percentage	99.8%
S=C([S][Au-][P+](CCCCCC[P+]([Au-][S]C(=S)n1cccn1)(c1ccccc1)c1ccccc1)(c1ccccc1)c1ccccc1)n1cccn1	cell growth, NCI-60 screen	renal cancer	–	log10 TGI	> -4
O=C(Nc1nnc2[nH]c(=S)[nH]c(-c3ccc(Cl)cc3)c1-2)c1ccccc1	SRB	10 µM, NCI60 single-dose screen	relative to: untreated	cell growth	96.7%
O=C1NC(c2ccccc2)(c2ccccc2)C(=O)N1Cc1cn(-c2c3ccccc3nc3ccccc23)nn1	NCI60 single-dose screen	10 µM	–	growth percentage	81.5%
CCCN1CCN(c2ccc3[nH]c(-c4ccc5[nH]c(-c6ccc(C(F)(F)F)cc6)nc5c4)nc3c2)CC1	SRB	10 µM, 48 h	–	growth percent	-99.9%
CCn1cc(-c2cc(Cn3ccoc3=N)cc3c2CCN([C@@H](C)c2cc(OC)ccn2)C3=O)c(C(F)(F)F)n1	cell growth, inhibitor	120 h	–	EC50	9.63 µM

For quick reference, copied from above:
Structure (SMILES)	assay	conditions	how to read	endpoint	value
CCCN1CCN(c2ccc3[nH]c(-c4ccc5[nH]c(-c6ccc(OCC)c(OCC)c6)nc5c4)nc3c2)CC1	SRB	10 µM, 48 h	–	growth percent	-28.9%
Cc1cc(C)n(-c2nc(-c3ccc(Cl)cc3)c3c(NC(=O)c4ccccc4)nnc-3[nH]2)n1	SRB	10 µM, NCI60 single-dose screen	relative to: untreated	cell growth	99.4%
Cc1cc(=O)[nH]c(=O)n1Cc1cn(-c2c3ccccc3nc3ccccc23)nn1	NCI60 single-dose screen	10 µM	–	growth percentage	87.4%
C#C[C@@]1(O)[C@@H](CO)O[C@@H](n2ccc3c(N)ncnc32)[C@@H]1O	SRB	NCI-60 screen	–	TGI	4.48 µM
